Experimental data gathered from unrelated publications.
Compare with care: the assays were run in different laboratories. Several values in a cell are separate wells, animals, samples, runs or records.
MAPK8: Mitogen-activated protein kinase 8 (MAPK8, Homo sapiens, UniProt P45983)
MAPK8 C116S: Mitogen-activated protein kinase 8 (MAPK8, Homo sapiens, UniProt P45983, C116S)

CNC(=O)C[C@H](Cc1ccc(C#N)cc1)NC(=O)c1cc(-c2ccc(CN[C@H](C)c3ccc(C)cc3)o2)ccc1Cl: “activity vs control” 102% (MAPK8; enzyme activity, inhibitor; 1 µM).
For Cc1cccc(-c2ccc3nc(NC(=O)C4CCCO4)nn3c2)c1 (centres unmarked), the remaining activity was 101% (MAPK8; enzyme activity, Dundee kinase panel; 10 µM).
COC(=O)[C@@]1(C)C=C(C(=O)Nc2cccc(C(=O)Nc3ccc(Nc4nccc(-c5cccnc5)n4)c(C)c3)c2)C(=O)CC1 has a remaining activity of 0.338 (MAPK8; enzyme activity, inhibitor; 0.06097 µM, 6 h, unit not given, with: GSH 10 mM pre-incubation; baseline: vehicle).
O=C(Cc1ccc(OCc2ccccc2)cc1)NC1(C(=O)O)CCN(C(=O)c2ccc(-c3cccc(Cl)c3)cc2)CC1 — result for “activity vs control”: 99% (MAPK8; enzyme activity, inhibitor; 10 µM).
COC(=O)[C@]1(Cc2ccccc2)C=C(C(=O)OC(C)(C)C)C(=O)CC1 gave a fraction bound of 0.325 (MAPK8; D-peptide binding, inhibitor, FP peptide displacement; 15.62 µM; lower is stronger displacement).
For COC(=O)[C@@]1(C)C=C(C(=O)NCc2cccc(C(=O)Nc3ccc(Nc4nccc(-c5cccnc5)n4)c(C)c3)c2)C(=O)CC1, the koff was 0.0552 s⁻¹ (MAPK8 C116S; noncovalent binding, SPR; 100, 300, 1000 nM, two-step kinetic model).
C=C1CCCCCCCCCC(CO)C1=O (centres unmarked) gave a remaining binding of 99% (MAPK8; cell-free assay, competition with immobilised ligand; 10 µM).
The remaining binding of CC(C)=CC1OC(C)(C)C2C=C3C(=O)C(Cl)=CC(O)C3C3C(O)C4OC4C(=O)C132 (centres unmarked) is reported as 68% (MAPK8; cell-free assay, competition with immobilised ligand; 10 µM).
Cc1cccc(O[C@H]2CCC[C@@H](C(C)CNCc3ccncc3)C2)c1 (relative stereo) gave an inhibition of -8% (MAPK8; kinase activity, kinome panel screening; 10 µM).
With CNC1C[S+]2CC[S+]3CC[S+](C1)[Ru-4]321([N]=C=S)[n]2c3ccc(OC)cc3c3c4c(c5cc(F)c[n+]1c5c32)C(=O)NC4=O (centres unmarked) the remaining binding was 100% (MAPK8; KinomeScan; 0.1 µM; baseline: untreated).
For C=C1CC2(C(=O)OC)C=C(C(=O)OC(C)(C)C)C(=O)C1C2 (centres unmarked), the fraction bound was 0.799 (MAPK8; D-peptide binding, inhibitor, FP peptide displacement; 15.62 µM; lower is stronger displacement).
For N[C@H]1CC[C@H](Nc2nccc(-c3cccnc3Oc3ccc(NC(=O)NC4CC4)c4ccccc34)n2)CC1, “log2 LFQ intensity” read 28.1 and 28 and 28.2 (MAPK8; kinobead competition pulldown; HEK293/HCT116 lysate mixture; 10 µM, 1 h, 4 °C; lower = stronger competition).
The fraction bound of COC(=O)C1(C)C=C(C(=O)OC(C)(C)C)C(=O)CC1 (centres unmarked) is reported as 0.339 (MAPK8; D-peptide binding, inhibitor, FP peptide displacement; 250 µM; lower is stronger displacement).
CN1CCN(Cc2ccc(NC(=O)c3cccc(C#Cc4cnc(N)c5ncccc45)c3)cc2C(F)(F)F)CC1 has a remaining binding of 70% (MAPK8; cell-free assay, competition with immobilised ligand; 0.5 µM).
NC(=O)[C@@H](O)C[C@H]1CCc2sc3ncnc(O[C@H]4CC[C@H](N5CCOCC5)CC4)c3c21 gave an inhibition of -3% (MAPK8; enzyme activity, inhibitor; 10 µM).
CC(C)(C)OC(=O)C1=C[C@@](C)(C(=O)OCC#Cc2ccncc2)CCC1=O gave a fraction bound of 0.702 (MAPK8; D-peptide binding, inhibitor, FP peptide displacement; 12.5 µM; lower is stronger displacement).
COc1c(Cl)cccc1Nc1c(-c2ccncc2C#C[C@@]2(C)CCCN2C(=O)/C=C/CN(C)C)[nH]c2c1C(=O)NCC2 has a remaining binding of 0.7% (MAPK8; binding, competition with immobilised ligand; 3 µM).
For C=C1C[C@]2(C(=O)OC)C=C(C(=O)Nc3cccc(C(=O)Nc4ccc(Nc5nccc(-c6cccnc6)n5)c(C)c4)c3)C(=O)[C@H]1C2, “ΔΔG bond formation contribution” read -3.1 kcal/mol (MAPK8; SPR two-step binding model; reversible bond formation).
The binding of Cc1cnc2nc1Nc1cccc(c1)COC/C=C/COCc1cc(ccc1OCCN1CCOCC1)N2 is reported as 53% (MAPK8; concentration not given, kinase construct JNK1; baseline: control).
CNC(=O)C1CCN(c2cc(C)c(F)cc2NC(=O)c2ccc(-c3cc(O)ccc3C)c(C)c2)CC1 gave a remaining binding of 76% (MAPK8; binding, competition with immobilised ligand; 1 µM).
The inhibition of CCn1cc(C(=O)O)c(=O)c2c(N)c(F)c(NC3CCCCC3)cc21 is reported as 1.5% (MAPK8; kinase activity; 0.1 µM, with: ATP at Km).
CN(C)c1ccc(-n2cc(COC(=O)[C@]3(C)C=C(C(=O)OC(C)(C)C)C(=O)CC3)nn2)cc1 — result for “luminescence relative to control”: 0.409 (Mitogen-activated protein kinase 8, with MKK7 (MAPK8, Homo sapiens, UniProt P45983); protein-protein interaction, NanoBiT, measured: MKK7-JNK1 binding; HEK293T; 10 µM; baseline: DMSO control).
With Cc1cccc(C2(C(=O)Nc3c[nH]nc3-c3ccccc3)CC2)c1 the remaining binding was 23% (MAPK8; cell-free assay, competition with immobilised ligand; 10 µM).
COc1cc(Nc2nc(C)cc(-c3cnn4nc(OC)ccc34)n2)cc(C(F)(F)F)c1 gave a remaining binding of 88% (MAPK8; KINOMEscan; 1 µM, JNK1; baseline: DMSO).
With COc1ccc(NC(=O)Nc2ccc3c(c2)C(=O)N(C(C)CO)CC(C)C(CN(C)Cc2ccc4c(c2)OCO4)O3)cc1 (centres unmarked) the remaining binding was 91% (MAPK8; binding, competition with immobilised ligand; 10 µM).
CN(C)c1ccc(C#CCOC(=O)[C@]2(C)C=C(C(=O)OC(C)(C)C)C(=O)CC2)cc1 has a fraction bound of 0.253 (MAPK8; D-peptide binding, inhibitor, FP peptide displacement; 500 µM; lower is stronger displacement).
C=CC(=O)N1CCc2ccc(-n3c(=O)ccc4cnc5ccc(-c6cnn(C)c6)cc5c43)cc21 has a remaining binding of 85% (MAPK8; KINOMEscan; 1 µM; baseline: DMSO control).
C=CC(=O)Nc1cccc(-c2cnc3[nH]cc(C(=O)NC(C)(C)C)c3n2)c1 gave an inhibition of -1% (MAPK8; enzyme activity, inhibitor; 0.1 µM).
For Cc1cc(NC(=O)c2cccc(NC(=O)/C(C#N)=C/C(C)(C)C)c2)ccc1Nc1nccc(-c2cccnc2)n1, the koff was 0.0998 s⁻¹ (MAPK8 C116S; noncovalent binding, SPR; 100, 300, 1000 nM, two-step kinetic model).

A few entries again:
NC(=O)[C@@H](O)C[C@H]1CCc2sc3ncnc(O[C@H]4CC[C@H](N5CCOCC5)CC4)c3c21 gave an inhibition of -3% (MAPK8; enzyme activity, inhibitor; 10 µM).
CC(C)(C)OC(=O)C1=C[C@@](C)(C(=O)OCC#Cc2ccncc2)CCC1=O gave a fraction bound of 0.702 (MAPK8; D-peptide binding, inhibitor, FP peptide displacement; 12.5 µM; lower is stronger displacement).
COc1c(Cl)cccc1Nc1c(-c2ccncc2C#C[C@@]2(C)CCCN2C(=O)/C=C/CN(C)C)[nH]c2c1C(=O)NCC2 has a remaining binding of 0.7% (MAPK8; binding, competition with immobilised ligand; 3 µM).
For C=C1C[C@]2(C(=O)OC)C=C(C(=O)Nc3cccc(C(=O)Nc4ccc(Nc5nccc(-c6cccnc6)n5)c(C)c4)c3)C(=O)[C@H]1C2, “ΔΔG bond formation contribution” read -3.1 kcal/mol (MAPK8; SPR two-step binding model; reversible bond formation).
